Experimental data pooled from the literature.
± gives the spread as reported.

CC(=O)N[C@H]1[C@@H](O[C@H](C)[C@H](NC(=O)[C@@H](NC(=O)CNC(=O)[C@@H](N)Cc2c[nH]cn2)C(C)C)C(=O)N[C@@H](CO)C(=O)N[C@@H](C)C(=O)N2CCC[C@H]2C(=O)N[C@@H](CC(=O)O)C(N)=O)O[C@H](CO)[C@H](O)[C@@H]1O[C@@H]1O[C@H](CO)[C@H](O)[C@H](O)[C@H]1O — –ΔH (Galectin-3 (LGALS3, Homo sapiens, UniProt P17931); binding, isothermal titration calorimetry; full-length protein): 1.32 kcal/mol
CC(=O)[O-].O.O.O.O.[Mn+2].[O-]c1ccc(Br)cc1C=NCCN1CCOCC1 — inhibition zone diameter (Chromobacterium violaceum; 20 µL of 100 µM per disc): 17 mm
[64Cu+2].c1cnc(CNCc2ccc(CN3CCCN4CCNCCCN(CC4)CC3)cc2)nc1 — tissue uptake (CXCR4; NOD/SCID mouse, U87 and U87-stb-CXCR4 xenografts, spleen; iv, 450 min, ex vivo): 11 ± 1.06 %ID/g
O=P(O)(O)O[C@@H]1[C@@H](O)[C@H](O)[C@H](O)[C@H](O)[C@H]1OP(=O)(O)O — ΔpKd (Inositol 1,4,5-trisphosphate-gated calcium channel ITPR1, IP3-binding core (Itpr1, Rattus norvegicus, UniProt P29994, R504Q); binding, 3H-IP3 competition; IP3-binding core, unit not given; reference: R504Q over wild type): 0.16 ± 0.07
N=C(N)NCCC[C@@H]1NC(=O)[C@H](CCCCNC(=O)CNC(=O)CNC(=O)CNC(=O)CC[C@H](NC(=O)CNC(=O)CNC(=O)CNC(=O)CN2CCN(CC(=O)O)CCN(CC(=O)O)CCN(CC(=O)O)CC2)C(=O)NCC(=O)NCC(=O)NCC(=O)NCCCC[C@@H]2NC(=O)[C@@H](Cc3ccccc3)NC(=O)[C@H](CC(=O)O)NC(=O)CNC(=O)[C@H](CCCNC(=N)N)NC2=O)NC(=O)[C@@H](Cc2ccccc2)NC(=O)[C@H](CC(=O)O)NC(=O)CNC1=O [indium-111 labelled] — tissue uptake (female athymic nu/nu mice, brain; intravenous, 4 h): 0.07 %ID/g
COc1cc2c(cc1OC)C(c1ccc(F)cc1F)N(CCCOc1ccc(CCC(=O)O)cc1)CC2 (stereo not shown) — binding (Peroxisome proliferator-activated receptor delta (PPARD, Homo sapiens, UniProt Q03181); TR-FRET competitive binding; 500 pM to 100 µM): no binding
O=C(O)c1cc([N+](=O)[O-])ccc1NCCCc1ccccc1 — current reduction (Cystic fibrosis transmembrane conductance regulator (CFTR, Homo sapiens, UniProt P13569, E1371S); chloride current, pore blocker, inside-out patch clamp; Xenopus oocytes, E1371S; 210 µM, at -120 mV, together with: MOPS 80 mM): ~50%
NC[C@@H]1O[C@H](O[C@H]2[C@@H](O)[C@H](O[C@@H]3[C@@H](O)[C@H](N)C[C@H](N)[C@H]3O[C@H]3O[C@H](CN)[C@@H](O)[C@H](O)[C@H]3N)O[C@@H]2CO)[C@H](N)[C@@H](O)[C@@H]1O — AC50 (poly(dA)•2poly(dT); DNA binding, fluorescent intercalator displacement; pH 6.8, together with: thiazole orange 1.25 µM): 3000 ± 600 nM
NC(=O)C1CCCCNC(=O)C(CCCNC(=O)c2cnccn2)NC(=O)C(Cc2ccco2)NC(=O)C(CC2CC2)NC(=O)C=CC(=O)N1 (stereo not shown) — enrichment factor (Receptor tyrosine-protein kinase erbB-4 (ERBB4, Homo sapiens, UniProt Q15303); DNA-templated library selection; one selection round): 1.2
CC(C)C(C(=O)Nc1ccc(C(=O)NO)cc1)c1ccccc1 (stereo not shown) — IC50 (Lucilia cuprina; pupation; LS strain, larvae on impregnated cotton wool; 216 h): 28 µg
COc1cc(Cc2c[nH]c3ncc(C(F)(F)F)cc23)cc(OC)c1 — ligand efficiency (Fibroblast growth factor receptor 1 (FGFR1, Homo sapiens, UniProt P11362); 300 K): 0.44
CCS(=O)(=O)Oc1cc(/C=N/NC(=O)c2nc3ccccc3s2)ccc1OC — protein level (TUBB/Tubulin alpha-1B chain (Homo sapiens, UniProt P07437+P68363); ELISA; MCF7; concentration not given, 24 h): 210 pg/mL
CCCC[C@H](NC(=O)CNC(=O)CNC(=O)CN1CCN(CC(=O)O)CCN(CC(=O)O)CCN(CC(=O)O)CC1)C(=O)N[C@H]1CC(=O)NCCCC[C@@H](C(N)=O)NC(=O)[C@H](Cc2c[nH]c3ccccc23)NC(=O)[C@H](CCCNC(=N)N)NC(=O)[C@@H](Cc2ccccc2)NC(=O)[C@H](Cc2c[nH]cn2)NC1=O [lutetium-177 labelled] — tissue uptake (C57 mouse, female, stomach; intravenous, 0.037 MBq, 2 h): 1.37 ± 0.45 %ID/g
C=C1CN(S(=O)(=O)c2ccc(C)cc2)CCCN(Cc2ccccc2)CCCN(S(=O)(=O)c2ccc(C)cc2)C1 — mature CD4 level (T-cell surface glycoprotein CD4 (CD4, Homo sapiens, UniProt P01730); pulse-chase; CHO-K1 transfected with CD4; 10 µM, 45 min chase): decreased
CCNc1nc(Nc2cccc(S(=O)(=O)NC)c2)ncc1-c1ccc(F)c(OC)c1 — thermal shift (Ephrin type-A receptor 2 (EPHA2, Homo sapiens, UniProt P29317); 10 µM): 4.3 K
CNc1ccccc1C(=O)O[C@H]1C[C@H](n2cnc3c(N)ncnc32)O[C@@H]1COP(=O)(O)OP(=O)(O)O — association rate constant (Unconventional myosin-Va (Gallus gallus, UniProt Q02440, D297C/G292C/I296C/S293C/V295G); stopped-flow FRET; 15 °C, together with: EDTA 4 mM): 4.14e+06 ± 380000 M⁻¹ s⁻¹
CCCN(CC(=O)N(CCC)CC(=O)N(CCC)CC(=O)N(CC(N)=O)Cc1cn(CCCNC(=O)CCCOc2cccc(-c3nc4ccc(-c5nc6ccc(N7CCN(C)CC7)cc6[nH]5)cc4[nH]3)c2)nn1)C(=O)CNCc1cn(CCCNC(=O)CCCOc2cccc(-c3nc4ccc(-c5nc6ccc(N7CCN(C)CC7)cc6[nH]5)cc4[nH]3)c2)nn1 — multivalent effect (MBNL1–r(CUG)109 complex; MBNL1 displacement; 0.65 pmol r(CUG)109; unit not given, together with: yeast tRNA 3.7 µM; reference: monomer 2 IC50 per module): 3
N[C@H]1CCCCNC(=O)[C@H](Cc2ccccc2)NC(=O)[C@@H]2CCCN2C(=O)[C@@H](N)CCCCNC(=O)[C@H](Cc2ccccc2)NC(=O)[C@@H]2CCCN2C1=O — caspase-3/7 activity (E3 ubiquitin-protein ligase XIAP, linker-BIR2-BIR3 (XIAP, Homo sapiens, UniProt P98170); antagonist; MDA-MB-231 cell lysate; 100000 nM, together with: 50 nM XIAP linker-BIR2-BIR3 protein): no effect
COC(=O)c1ccc(CNC(=O)[C@@H]2C[C@@H](O)CN2C(=O)CC(C)(C)C)cc1 — entropic term (−TΔS) (von Hippel-Lindau disease tumor suppressor, with Elongin B/C (VHL, Homo sapiens, UniProt P40337); isothermal titration calorimetry; 25 °C): -2.51 ± 0.12 kcal/mol

For quick reference, copied from above:
CC(C)C(C(=O)Nc1ccc(C(=O)NO)cc1)c1ccccc1 (stereo not shown) — IC50 (Lucilia cuprina; pupation; LS strain, larvae on impregnated cotton wool; 216 h): 28 µg
COc1cc(Cc2c[nH]c3ncc(C(F)(F)F)cc23)cc(OC)c1 — ligand efficiency (Fibroblast growth factor receptor 1 (FGFR1, Homo sapiens, UniProt P11362); 300 K): 0.44
